Published values from different studies.
Protocols differ between the studies behind these lines. ± marks the error that the study gave.
gag-pol integrase: Gag-Pol polyprotein, integrase (gag-pol, Human immunodeficiency virus 1, UniProt P12497)
GABA-A receptor; alpha-1/beta-2/gamma-2: GABA-A receptor; alpha-1/beta-2/gamma-2 (Rattus norvegicus, UniProt P18508+P62813+P63138)
Chain of UniProt P18508 (whole entry, looked up): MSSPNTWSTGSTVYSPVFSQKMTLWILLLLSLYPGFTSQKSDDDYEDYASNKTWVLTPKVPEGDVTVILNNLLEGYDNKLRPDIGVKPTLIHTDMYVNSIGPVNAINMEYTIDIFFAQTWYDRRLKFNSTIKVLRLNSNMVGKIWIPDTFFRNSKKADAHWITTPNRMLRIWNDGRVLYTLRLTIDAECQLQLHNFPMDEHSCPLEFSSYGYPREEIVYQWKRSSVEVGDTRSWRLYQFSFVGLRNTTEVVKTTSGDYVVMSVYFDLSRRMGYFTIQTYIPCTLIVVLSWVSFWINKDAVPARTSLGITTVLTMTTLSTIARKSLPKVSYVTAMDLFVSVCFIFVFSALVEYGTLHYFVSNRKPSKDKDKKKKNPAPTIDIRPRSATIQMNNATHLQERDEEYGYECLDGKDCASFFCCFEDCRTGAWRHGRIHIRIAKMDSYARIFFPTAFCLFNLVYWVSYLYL
Chain of UniProt P63138 (whole entry, looked up): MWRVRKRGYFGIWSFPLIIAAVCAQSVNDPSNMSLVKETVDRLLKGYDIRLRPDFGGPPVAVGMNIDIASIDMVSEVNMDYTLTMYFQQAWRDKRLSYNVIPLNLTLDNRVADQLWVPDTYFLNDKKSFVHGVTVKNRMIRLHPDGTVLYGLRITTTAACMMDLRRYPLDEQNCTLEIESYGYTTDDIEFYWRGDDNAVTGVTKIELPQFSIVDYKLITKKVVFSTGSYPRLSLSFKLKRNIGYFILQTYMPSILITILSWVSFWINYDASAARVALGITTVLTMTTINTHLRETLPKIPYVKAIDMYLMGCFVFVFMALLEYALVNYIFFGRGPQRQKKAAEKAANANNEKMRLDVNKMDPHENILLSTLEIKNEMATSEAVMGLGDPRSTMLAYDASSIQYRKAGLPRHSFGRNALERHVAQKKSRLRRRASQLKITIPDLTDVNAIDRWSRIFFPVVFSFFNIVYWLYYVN
Chain of UniProt P62813 (whole entry, looked up): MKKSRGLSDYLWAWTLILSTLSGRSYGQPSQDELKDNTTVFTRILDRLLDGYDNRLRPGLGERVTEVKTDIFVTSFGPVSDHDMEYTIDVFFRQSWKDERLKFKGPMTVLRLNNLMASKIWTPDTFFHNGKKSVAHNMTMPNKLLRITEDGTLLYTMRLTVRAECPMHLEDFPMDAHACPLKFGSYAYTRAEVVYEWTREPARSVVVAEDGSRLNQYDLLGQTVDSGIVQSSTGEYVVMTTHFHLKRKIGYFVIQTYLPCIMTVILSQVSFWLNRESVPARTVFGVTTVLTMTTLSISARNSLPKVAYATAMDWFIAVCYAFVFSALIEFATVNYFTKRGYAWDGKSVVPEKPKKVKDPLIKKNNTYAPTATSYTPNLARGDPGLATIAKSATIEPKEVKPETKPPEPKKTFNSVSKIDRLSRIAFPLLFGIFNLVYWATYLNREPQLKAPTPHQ
CatSper channel complex: CatSper channel complex (Homo sapiens, UniProt Q7RTX7+Q86XQ3+Q8NEC5+Q96P56)
Chain of UniProt Q86XQ3 (whole entry, looked up): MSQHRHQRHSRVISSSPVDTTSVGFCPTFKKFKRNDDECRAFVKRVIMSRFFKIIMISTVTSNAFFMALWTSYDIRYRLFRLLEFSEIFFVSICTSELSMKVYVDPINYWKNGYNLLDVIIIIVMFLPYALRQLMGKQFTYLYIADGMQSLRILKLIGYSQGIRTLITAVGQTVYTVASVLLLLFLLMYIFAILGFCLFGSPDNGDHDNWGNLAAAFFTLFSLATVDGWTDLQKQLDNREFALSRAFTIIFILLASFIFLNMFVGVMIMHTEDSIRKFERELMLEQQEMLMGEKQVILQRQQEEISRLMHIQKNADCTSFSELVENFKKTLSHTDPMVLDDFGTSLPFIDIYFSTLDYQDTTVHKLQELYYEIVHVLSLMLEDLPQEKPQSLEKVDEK
Chain of UniProt Q7RTX7 (whole entry, looked up): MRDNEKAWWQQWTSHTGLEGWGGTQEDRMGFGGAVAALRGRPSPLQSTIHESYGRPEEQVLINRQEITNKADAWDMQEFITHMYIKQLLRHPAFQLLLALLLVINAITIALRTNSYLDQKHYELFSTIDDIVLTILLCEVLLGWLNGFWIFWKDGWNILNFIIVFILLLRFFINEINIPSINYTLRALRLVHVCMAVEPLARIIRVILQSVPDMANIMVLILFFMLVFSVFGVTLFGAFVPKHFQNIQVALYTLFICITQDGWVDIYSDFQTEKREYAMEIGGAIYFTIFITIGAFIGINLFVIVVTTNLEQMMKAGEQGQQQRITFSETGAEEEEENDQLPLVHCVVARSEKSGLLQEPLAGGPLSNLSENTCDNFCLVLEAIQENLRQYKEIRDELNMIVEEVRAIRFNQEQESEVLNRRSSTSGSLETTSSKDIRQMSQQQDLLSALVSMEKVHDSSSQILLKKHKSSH
Chain of UniProt Q8NEC5 (whole entry, looked up): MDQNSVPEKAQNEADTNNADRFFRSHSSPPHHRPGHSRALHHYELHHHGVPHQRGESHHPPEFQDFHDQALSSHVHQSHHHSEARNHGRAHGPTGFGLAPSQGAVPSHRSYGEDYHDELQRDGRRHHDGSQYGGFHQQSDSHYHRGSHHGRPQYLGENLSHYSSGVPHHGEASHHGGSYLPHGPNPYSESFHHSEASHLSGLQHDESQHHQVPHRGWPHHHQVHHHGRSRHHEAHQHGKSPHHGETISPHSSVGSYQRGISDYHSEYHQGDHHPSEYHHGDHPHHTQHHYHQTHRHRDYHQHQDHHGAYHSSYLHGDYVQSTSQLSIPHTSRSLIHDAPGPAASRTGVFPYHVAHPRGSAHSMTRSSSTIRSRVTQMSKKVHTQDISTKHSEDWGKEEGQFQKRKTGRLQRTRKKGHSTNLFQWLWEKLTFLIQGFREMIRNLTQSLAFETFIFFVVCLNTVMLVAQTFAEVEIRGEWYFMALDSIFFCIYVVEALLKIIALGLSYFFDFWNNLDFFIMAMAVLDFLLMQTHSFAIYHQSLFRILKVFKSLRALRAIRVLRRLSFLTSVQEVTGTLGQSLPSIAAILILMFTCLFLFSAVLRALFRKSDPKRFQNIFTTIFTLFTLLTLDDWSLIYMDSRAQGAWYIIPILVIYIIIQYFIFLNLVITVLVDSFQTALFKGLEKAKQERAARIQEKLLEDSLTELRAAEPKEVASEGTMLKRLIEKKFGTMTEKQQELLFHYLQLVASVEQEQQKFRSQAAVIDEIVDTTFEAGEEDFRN
Chain of UniProt Q96P56 (whole entry, looked up): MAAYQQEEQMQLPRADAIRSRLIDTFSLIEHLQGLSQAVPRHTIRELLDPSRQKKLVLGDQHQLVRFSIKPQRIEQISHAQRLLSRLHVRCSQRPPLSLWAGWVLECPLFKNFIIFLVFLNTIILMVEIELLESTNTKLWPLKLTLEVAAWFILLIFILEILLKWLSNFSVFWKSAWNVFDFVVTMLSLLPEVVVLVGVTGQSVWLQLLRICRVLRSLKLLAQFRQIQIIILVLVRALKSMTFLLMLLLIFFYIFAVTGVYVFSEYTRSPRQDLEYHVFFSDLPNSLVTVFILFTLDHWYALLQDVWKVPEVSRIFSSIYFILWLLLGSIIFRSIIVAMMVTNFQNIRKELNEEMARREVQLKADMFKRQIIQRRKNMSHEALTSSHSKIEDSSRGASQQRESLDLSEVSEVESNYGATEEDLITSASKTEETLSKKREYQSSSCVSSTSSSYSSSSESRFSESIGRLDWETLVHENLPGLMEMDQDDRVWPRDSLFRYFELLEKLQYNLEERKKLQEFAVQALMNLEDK
Voltage-gated sodium channel: Voltage-gated sodium channel (Musca domestica, UniProt Q25439)
BCHE: Cholinesterase (BCHE, Homo sapiens, UniProt P06276)
Chain of UniProt P06276 (whole entry, looked up): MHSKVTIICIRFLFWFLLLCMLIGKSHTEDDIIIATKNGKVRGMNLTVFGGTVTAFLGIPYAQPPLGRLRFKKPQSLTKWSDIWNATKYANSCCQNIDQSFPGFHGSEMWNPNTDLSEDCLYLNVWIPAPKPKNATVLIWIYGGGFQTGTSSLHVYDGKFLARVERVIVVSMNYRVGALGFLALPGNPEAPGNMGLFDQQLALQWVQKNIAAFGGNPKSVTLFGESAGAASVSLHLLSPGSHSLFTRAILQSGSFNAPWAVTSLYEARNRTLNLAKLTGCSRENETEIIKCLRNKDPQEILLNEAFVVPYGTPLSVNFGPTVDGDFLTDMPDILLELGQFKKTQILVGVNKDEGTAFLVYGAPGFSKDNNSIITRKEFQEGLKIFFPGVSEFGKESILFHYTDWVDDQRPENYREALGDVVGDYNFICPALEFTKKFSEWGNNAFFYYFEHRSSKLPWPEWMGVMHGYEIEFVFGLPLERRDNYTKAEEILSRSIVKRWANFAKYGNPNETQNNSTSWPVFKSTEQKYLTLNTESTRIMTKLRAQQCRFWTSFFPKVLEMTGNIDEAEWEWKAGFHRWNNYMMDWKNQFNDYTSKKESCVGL
Chain of UniProt P14416 (whole entry, looked up): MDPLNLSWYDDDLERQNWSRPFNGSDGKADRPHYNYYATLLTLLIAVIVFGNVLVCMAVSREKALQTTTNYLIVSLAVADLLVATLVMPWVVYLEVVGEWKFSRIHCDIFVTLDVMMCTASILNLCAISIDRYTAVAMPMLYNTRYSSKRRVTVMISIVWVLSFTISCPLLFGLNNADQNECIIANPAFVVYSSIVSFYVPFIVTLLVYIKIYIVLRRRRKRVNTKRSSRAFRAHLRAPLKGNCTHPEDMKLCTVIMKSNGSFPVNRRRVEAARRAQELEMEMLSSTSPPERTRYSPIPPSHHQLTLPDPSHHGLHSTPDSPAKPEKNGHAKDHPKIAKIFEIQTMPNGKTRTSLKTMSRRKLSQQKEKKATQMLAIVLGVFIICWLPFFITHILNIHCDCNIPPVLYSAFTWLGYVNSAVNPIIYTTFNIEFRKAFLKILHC
Chain of UniProt P29275 (whole entry, looked up): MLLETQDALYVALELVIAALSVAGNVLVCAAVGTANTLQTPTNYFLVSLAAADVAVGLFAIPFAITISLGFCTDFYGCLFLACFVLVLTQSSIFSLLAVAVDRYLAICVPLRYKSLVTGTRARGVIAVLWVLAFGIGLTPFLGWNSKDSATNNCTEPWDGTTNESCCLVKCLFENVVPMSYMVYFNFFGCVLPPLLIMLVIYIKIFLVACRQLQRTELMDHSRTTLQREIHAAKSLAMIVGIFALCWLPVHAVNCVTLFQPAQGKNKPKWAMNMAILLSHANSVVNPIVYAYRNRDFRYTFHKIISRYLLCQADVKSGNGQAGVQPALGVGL

For `CC/N=c1/scc(-c2cc(OC)ccc2OC)n1/N=C(\C)c1ccco1`, the IC50 was greater than 100 µM (gag-pol integrase; strand transfer activity, inhibitor; wild-type integrase).
For `NCc1cc(=O)[nH]o1`, the EC50 was 0.18 µM (GABA-A receptor; alpha-1/beta-2/gamma-2; chloride current, agonist, whole-cell patch clamp; HEK293 expressing GABAA; 30 s).
With `C=C(C)[C@@H]1CCC(C)=C[C@H]1c1c(O)cc(CCCCC)cc1O` the EC50 was 1.17 ± 1.17 µM (CatSper channel complex; intracellular Ca2+ increase, agonist, Fluo-4 fluorimetry; human sperm).
`C[C@]12CC[C@H]3[C@@H](CCC4=CC(=O)CC[C@@]43C)[C@@H]1[C@H](O)C[C@@H]2O` has an EC50 of 160 µM (Androgen receptor (AR, Homo sapiens, UniProt P10275); cell-based).
With `CCCCCCCCCCCCCC(=O)O[C@@H]1[C@@H](C)[C@@]2(O)[C@@H](C=C(CO)C[C@]3(O)C(=O)C(C)=C[C@@H]23)[C@@H]2C(C)(C)[C@]12OC(C)=O` the EC50 was 0.0428 ± 0.0123 µM (Adenosine receptor A2b (ADORA2B, Homo sapiens, UniProt P29275); cAMP accumulation, agonist; HEK293 expressing A2B receptor; 20 min).
For `CC1(C)[C@H](C=C(Cl)Cl)[C@H]1C(=O)OCc1c(F)c(F)cc(F)c1F`, the EC50 was 1.78 µM (Voltage-gated sodium channel; membrane potential, activator, FLIPR; HEK293).
`CC[C@H](C)[C@H]1O[C@]2(C=C[C@@H]1C)C[C@@H]1C[C@@H](C/C=C(\C)[C@@H](O[C@H]3C[C@H](OC)[C@@H](O[C@H]4C[C@H](OC)[C@@H](O)[C@H](C)O4)[C@H](C)O3)[C@@H](C)/C=C/C=C3\CO[C@@H]4[C@H](O)C(C)=C[C@@H](C(=O)O1)[C@]34O)O2` has an EC50 of 1.3 µM (GABA-A receptor; alpha-1/beta-2/gamma-2; membrane potential, agonist, QP-DHM fluorescence; HEK293 expressing GABAA).
For `CC1(C)[C@H](C(=O)O[C@H](C#N)c2cccc(Oc3ccccc3)c2)[C@@H]1C=C(Br)Br`, the EC50 was 0.00525 µM (Voltage-gated sodium channel; membrane potential, activator, FLIPR; HEK293).
With `C=C(C)C1CCC(CO)=CC1c1c(O)cc(CCCCC)cc1O` (stereo not drawn) the EC50 was 1.8 ± 1.4 µM (CatSper channel complex; intracellular Ca2+ increase, agonist, Fluo-4 fluorimetry; human sperm).
With `c1cc(N2CCNCC2)c2cc[nH]c2c1` the EC50 was greater than 20 µM (Muscarinic acetylcholine receptor M4 (CHRM4, Homo sapiens, UniProt P08173); ERK1/2 phosphorylation, agonist; CHO cells).
The EC50 of `COc1cc(C(=O)N2CC[C@@H](O)[C@@H](N)C2)cc2nc(-c3cc4ccccc4n3CC3CC3)n(C)c12` is reported as greater than 100 µM (D(2) dopamine receptor (DRD2, Homo sapiens, UniProt P14416); agonist, GTPγS binding).
With `Clc1cc2c(cc1Cl)Oc1cc(Cl)c(Cl)cc1O2` the EC50 was 0.00013 ± 3e-05 µM (Aryl hydrocarbon receptor (Ahr, Mus musculus, UniProt P30561); agonist).
For `c1ccc2sc(C3(N4CCCCC4)CCCCC3)cc2c1`, the IC50 was 2.36 ± 0.4 µM (BCHE; inhibitor).
For `O=C(N/N=C/c1c(O)ccc2ccccc12)c1n[nH]c2c1CCC2`, the IC50 was greater than 100 µM (gag-pol integrase; 3'-processing activity, inhibitor; wild-type integrase).
`C[C@@H]1NC(=O)N[C@@H]1CCCCCC(=O)N1CCN(C(=O)c2ccc(/C=C/c3n[nH]c4ccc(-c5ccc(S(=O)(=O)F)cc5)cc34)cc2)CC1` has an EC50 of 2.9 µM (Tyrosine-protein kinase ABL1 (ABL1, Homo sapiens, UniProt P00519); covalent labeling, streptavidin Western blot; recombinant protein; 1 h).
`Cc1c[nH]c2ccccc12` gave an EC50 of 0.16 µM (GPRor10 (Aedes aegypti, UniProt Q177X3); ion current, agonist, two-electrode voltage clamp; Xenopus oocytes).
`CC1(C)C(C=C(Cl)Cl)C1C(=O)OCc1cccc(Oc2ccccc2)c1` (stereo not drawn) has an EC50 of 0.724 µM (Voltage-gated sodium channel; membrane potential, activator, FLIPR; HEK293).
For `CCOC(=O)C1(CCOc2ccccc2)CCN(Cc2ccc(O)c(Cl)c2)CC1`, the IC50 was 10.9 ± 3.59 µM (BCHE; inhibitor).

Some of these lines once more:
For `O=C(N/N=C/c1c(O)ccc2ccccc12)c1n[nH]c2c1CCC2`, the IC50 was greater than 100 µM (gag-pol integrase; 3'-processing activity, inhibitor; wild-type integrase).
`C[C@@H]1NC(=O)N[C@@H]1CCCCCC(=O)N1CCN(C(=O)c2ccc(/C=C/c3n[nH]c4ccc(-c5ccc(S(=O)(=O)F)cc5)cc34)cc2)CC1` has an EC50 of 2.9 µM (Tyrosine-protein kinase ABL1 (ABL1, Homo sapiens, UniProt P00519); covalent labeling, streptavidin Western blot; recombinant protein; 1 h).
